Results gathered from unrelated publications.
Every numbered part comes from another study and shows a few of its results, in no order. Positions count from the first letter of the parent shown.
UniProt O15294, sequence (whole entry, looked up): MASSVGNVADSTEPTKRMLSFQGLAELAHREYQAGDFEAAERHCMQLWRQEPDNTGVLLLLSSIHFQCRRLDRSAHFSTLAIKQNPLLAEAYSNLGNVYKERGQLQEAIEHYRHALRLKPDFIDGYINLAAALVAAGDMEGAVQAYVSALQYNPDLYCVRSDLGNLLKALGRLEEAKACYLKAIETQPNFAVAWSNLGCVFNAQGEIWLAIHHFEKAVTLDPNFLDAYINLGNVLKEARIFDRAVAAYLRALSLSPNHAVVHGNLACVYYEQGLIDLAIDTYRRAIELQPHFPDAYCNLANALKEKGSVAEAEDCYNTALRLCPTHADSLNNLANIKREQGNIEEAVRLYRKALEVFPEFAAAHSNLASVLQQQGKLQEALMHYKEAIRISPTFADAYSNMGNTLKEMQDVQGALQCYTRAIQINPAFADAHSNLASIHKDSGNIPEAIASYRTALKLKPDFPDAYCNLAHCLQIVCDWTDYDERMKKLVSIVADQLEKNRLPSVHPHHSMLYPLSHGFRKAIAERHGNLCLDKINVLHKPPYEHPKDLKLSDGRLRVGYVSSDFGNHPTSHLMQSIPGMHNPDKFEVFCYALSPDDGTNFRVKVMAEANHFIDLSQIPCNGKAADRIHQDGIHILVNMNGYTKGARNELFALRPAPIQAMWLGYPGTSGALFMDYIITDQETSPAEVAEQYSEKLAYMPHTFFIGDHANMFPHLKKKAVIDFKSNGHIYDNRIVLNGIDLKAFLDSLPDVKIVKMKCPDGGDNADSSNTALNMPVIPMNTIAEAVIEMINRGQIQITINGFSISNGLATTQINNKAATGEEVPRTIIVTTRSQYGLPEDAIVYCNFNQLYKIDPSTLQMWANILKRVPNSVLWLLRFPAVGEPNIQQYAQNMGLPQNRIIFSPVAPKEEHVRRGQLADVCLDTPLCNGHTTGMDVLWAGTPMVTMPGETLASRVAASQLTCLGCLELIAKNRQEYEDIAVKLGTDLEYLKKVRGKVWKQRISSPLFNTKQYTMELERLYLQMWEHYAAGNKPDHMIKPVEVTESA

Set 1 — target: Sox, HMG box (Pigoraptor chileana); method: Spec-seq; form: double-stranded DNA, one strand shown; medium: in vitro; concentration: not given; notes: whole probe, mean of replicates; baseline: not given; direction: lower = stronger binding; shared flanks, not repeated: GAGTCGTCTCGTCAGCAC … CCGTAGAGCACTCAGGTC
Construct (chain): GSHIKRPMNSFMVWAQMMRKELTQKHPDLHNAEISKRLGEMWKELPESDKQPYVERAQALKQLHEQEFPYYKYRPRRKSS
| Strand | relative binding energy [ln ratio] |
| --- | --- |
| CATTCTG | -0.0944 |
| CATTTGT | -1.8 |
| CATCGAC | 0.446 |
| TCAGGTT | 0.908 |
| CATGTTC | 0.764 |
| ATACGTT | -0.0572 |
| CCCGGTT | 0.847 |
| CCAGGTT | 1.22 |

Set 2 — method: protein-binding microarray; form: double-stranded DNA, one strand shown; medium: in vitro; concentration: not given; direction: higher = stronger binding
Target: Hepatocyte nuclear factor 3-beta, forkhead domain (FOXA2, Homo sapiens, UniProt Q9Y261, residues 142-269)
Notes: k-mer, scored over probes, only values ≥0.25
Construct (chain): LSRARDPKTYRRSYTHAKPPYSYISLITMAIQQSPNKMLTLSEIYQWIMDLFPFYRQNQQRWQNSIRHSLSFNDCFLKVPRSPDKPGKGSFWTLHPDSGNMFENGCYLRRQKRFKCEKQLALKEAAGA
| Strand | E-score |
| --- | --- |
| ATACTATA | 0.256 |
| AGGTTGTA | 0.337 |
| ATGACAAC | 0.274 |
| AAATAAGA | 0.25 |
| AAACACAC | 0.33 |
| GTGATTGA | 0.251 |
| AATCATGT | 0.277 |
| ACAGATAC | 0.269 |

Single results of other studies
P1: viral docking peptide; KGVKRKLFAEDSS; partner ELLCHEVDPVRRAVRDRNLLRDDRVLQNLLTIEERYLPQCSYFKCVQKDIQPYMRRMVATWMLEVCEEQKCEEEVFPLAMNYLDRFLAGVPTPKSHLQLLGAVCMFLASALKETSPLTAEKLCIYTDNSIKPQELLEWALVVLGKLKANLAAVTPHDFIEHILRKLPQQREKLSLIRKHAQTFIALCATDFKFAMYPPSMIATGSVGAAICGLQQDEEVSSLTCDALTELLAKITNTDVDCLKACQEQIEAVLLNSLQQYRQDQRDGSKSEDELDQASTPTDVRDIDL
| Substance | target | test | system | conditions | how to read | quantity | value |
| --- | --- | --- | --- | --- | --- | --- | --- |
| P1 S12H | CCND2, cyclin fold, Cln2 fusion (human) | yeast growth competition, sequencing | yeast | weak parent motif | baseline: not given, higher = stronger binding | normalised enrichment score | -0.245 |
| DHSLPTTHIHTHHDI | OGT (Homo sapiens, UniProt O15294) | binding, phage display NGS | peptide | concentration not given, normalized abundance | baseline: input library | enrichment fold change | 5.92 |
